Measured values gathered from unrelated publications.
Parts stem from different laboratories: compare values within a part only. Positions count from the first letter of the parent shown.

Block 1
Target: Interferon regulatory factor 5, full length, phosphomimetic (IRF5, Homo sapiens, UniProt Q13568-2, residues 1-514, K96S/S451D/S453D/S456D/S462D)
Technique: protein-binding microarray
Molecule type: double-stranded DNA, one strand shown
Matrix: in vitro
Tested at: 250 nM
Setting: 60-bp whole probe
With: salmon DNA 0.4 mg/ml
Baseline: random background probes
Direction: higher = stronger binding
Shared flanks, not repeated: GCCTAGCAC … GTCTTGATTCGCTTGACGCTGCTG
The log fluorescence of `TTAGGACCGGGTTTCGGTTAGTGCTAG` is reported as 7.6 z-score.
For `TTAAATTTCAGACTGGATTAGTGCTAG`, the log fluorescence was 0.626 z-score.
`TTCATTCCTGATCTCTGGTCGTGCTAG` has a log fluorescence of 0.434 z-score.
`GACGATATCAGTCTCGTGACGTGCTAG` has a log fluorescence of 0.982 z-score.
`TTAGGTATCGGTCTCTGTTAGTGCTAG` has a log fluorescence of 6.67 z-score.
The log fluorescence of `TCAGGTTTCCTTTCCCTTTAGTGCTAG` is reported as 1.99 z-score.
With `GACCGTTTCGGTCTCGGGACGTGCTAG` the log fluorescence was 8.82 z-score.
`TTAGAACTGGGGACTGGATTCGTGCTA` gave a log fluorescence of -0.328 z-score.
`TAAGATTTCAGTCTCGATTAGTGCTAG` has a log fluorescence of 2.15 z-score.
With `TTAGATTTCGTGACTGGATTAGTGCTA` the log fluorescence was 1.03 z-score.
`GACGGTCACCTACTGCTGACGTGCTAG` has a log fluorescence of -0.327 z-score.
The log fluorescence of `TTAGAACTGGGGTATCGATTTGTGCTA` is reported as 2.01 z-score.
`TTAGGACTGCGTTTCGGTTAGTGCTAG` has a log fluorescence of 7.1 z-score.
With `TTAGGTTTCGACTATTGGTTAGTGCTA` the log fluorescence was 7 z-score.
For `CGACATCTGCAAGATCCACAAGTGCTA`, the log fluorescence was 0.148 z-score.
The log fluorescence of `TTAGGACTGCTACTTCTTTAGTGCTAG` is reported as -0.234 z-score.
`TTCCCTCTGCTCCTCTTTTTGTGCTAG` gave a log fluorescence of 0.537 z-score.
For `TCATTTTCACTTTTCCTACTGTGCTAG`, the log fluorescence was 6.37 z-score.
`GACAATATCGGGTTTCGAGACGTGCTA` has a log fluorescence of 4.59 z-score.
With `GATGAACTGAGACTGGAGACGTGCTAG` the log fluorescence was -0.211 z-score.
The log fluorescence of `TTAGGTATCGGTCTCGCTTAGTGCTAG` is reported as 6.71 z-score.
`GGCTGTTTGGTTCTGATCCTGTGCTAG` gave a log fluorescence of -0.33 z-score.
The log fluorescence of `TCAGTTTTCTTTTCATTACTGTGCTAG` is reported as 2.66 z-score.
The log fluorescence of `GACGATATCGGGACTGGACACGTGCTA` is reported as 0.77 z-score.
With `TTAGGTTACCTACTGCTTTAGTGCTAG` the log fluorescence was -0.15 z-score.

Block 2
Target: CCND3, cyclin fold, Cln2 fusion (human)
Technique: yeast growth competition, sequencing
Matrix: yeast
Setting: weak parent motif
Baseline: not given
Direction: higher = stronger binding
Parent: SCAPER docking peptide (human); SNARRSLNFGGST; partner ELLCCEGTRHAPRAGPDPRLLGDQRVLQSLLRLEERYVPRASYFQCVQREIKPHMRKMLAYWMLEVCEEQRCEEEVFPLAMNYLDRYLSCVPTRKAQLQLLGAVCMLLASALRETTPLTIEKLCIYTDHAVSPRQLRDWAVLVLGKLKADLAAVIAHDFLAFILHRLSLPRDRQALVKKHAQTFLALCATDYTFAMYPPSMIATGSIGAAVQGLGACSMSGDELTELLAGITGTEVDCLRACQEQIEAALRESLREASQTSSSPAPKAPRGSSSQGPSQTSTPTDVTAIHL
`SHARRSLNFGGST [N2H]`: “normalised enrichment score” 0.142.
`SEARRSLNFGGST [N2E]` — result for “normalised enrichment score”: 0.141.
`SNARESLNFGGST [R5E]` — result for “normalised enrichment score”: 0.126.
Under “normalised enrichment score”, `SNARRSLNFGYST [G11Y]` is recorded as 0.141.
`SLARRSLNFGGST [N2L]` — result for “normalised enrichment score”: 0.0961.
For `SNARRSLNFGGSY [T13Y]`, “normalised enrichment score” read 0.125.
`SNARRSLNKGGST [F9K]` — result for “normalised enrichment score”: 0.116.
Under “normalised enrichment score”, `SNARRSLNFKGST [G10K]` is recorded as 0.0845.
`SNARRSLNFGGFT [S12F]`: “normalised enrichment score” 0.135.
`SNWRRSLNFGGST [A3W]`: “normalised enrichment score” 0.0912.
Under “normalised enrichment score”, `SNMRRSLNFGGST [A3M]` is recorded as 0.155.
`SNARRSLNFGAST [G11A]`: “normalised enrichment score” 0.149.
`SGARRSLNFGGST [N2G]` — result for “normalised enrichment score”: 0.202.
For `SNARRSLNFGGSG [T13G]`, “normalised enrichment score” read 0.129.
Under “normalised enrichment score”, `SNARRRLNFGGST [S6R]` is recorded as 0.202.
`SNARRSLNFGRST [G11R]` — result for “normalised enrichment score”: 0.0196.

Block 3
Target: RING finger protein unkempt homolog, zinc fingers 1-6, GST-SBP tag (UNK, Homo sapiens, UniProt Q9C0B0, residues 30-357)
Technique: RNA Bind-n-Seq
Molecule type: RNA
Matrix: in vitro
Tested at: not given
Setting: RNA with constant flanks, human-mouse chimeric sites, ends assumed
Baseline: input RNA pool
Direction: higher = stronger binding
Target sequence (chain): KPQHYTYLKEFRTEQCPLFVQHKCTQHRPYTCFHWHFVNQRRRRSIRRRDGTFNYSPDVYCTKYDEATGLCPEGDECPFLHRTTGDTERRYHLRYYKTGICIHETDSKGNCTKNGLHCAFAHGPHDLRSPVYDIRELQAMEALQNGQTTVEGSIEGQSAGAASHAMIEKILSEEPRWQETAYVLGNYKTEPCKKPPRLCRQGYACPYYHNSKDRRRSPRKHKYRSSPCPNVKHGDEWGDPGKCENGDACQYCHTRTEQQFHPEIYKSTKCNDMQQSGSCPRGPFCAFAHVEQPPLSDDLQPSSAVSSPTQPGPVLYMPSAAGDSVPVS
With `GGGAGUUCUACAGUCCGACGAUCCACACACUCUUCUGUGGGACCCUCAUCUUGCAGGCCCGGGCCUAUGUGGGACCGCACGUCCUGGCAGUGGUGACCCGCACAGGGUUCUGCACAGCCAAAGGGGGCCUGGUGAGCUCCAUCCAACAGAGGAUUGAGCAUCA` the bound/input enrichment was 0.0732 ratio.
`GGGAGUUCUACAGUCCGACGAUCCAGCGCCGAGGCCGCGGUUUCCCCCUGGGCCUCCCCAGCAGCAGCCAUGGGCAUCAAGUUUUUAGAAGUUAUCAAACCAUUCUGUGCAGUUCUACCAGAAAUUCAGAAACCGGAAAGGAACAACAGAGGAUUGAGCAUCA` gave a bound/input enrichment of 1.16 ratio.
The bound/input enrichment of `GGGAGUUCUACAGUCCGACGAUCAUCAAAUACUUUGGGGAUAUUAUUAGCGUGGGACAGAGACUGUUGCAAGGAGCUCGGAUCUUAGGGAUUCCAGUUAUUGUAACAGAACAAUACCCCAAAGGACUUGGCAGCACCGUUCAACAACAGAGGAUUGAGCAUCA` is reported as 0.263 ratio.
`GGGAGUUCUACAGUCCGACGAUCCUUAAUGUUAAUAUUUUUGAAUAAAUGAAGCUAAAAUGUCUGCUUUUGGUACAACACGCAUUAGCGAAAGGUUAAGUUUUGUUUUCCCUCCACUGAAUAUUUAACAUCUCAGAAAAAAACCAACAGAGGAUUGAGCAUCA` gave a bound/input enrichment of 0.642 ratio.
`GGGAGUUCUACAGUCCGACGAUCUUGCUACUGACUCCCUGGGUUAAAUUCCUGUGGGAAUCUUACAGGCAGUGUUUGGACCUUCUUCGAAACAAUUCUAGAGUAGAGCGCCUUUACCAUGAUAUCGCCCAACAAGCUUUCAAACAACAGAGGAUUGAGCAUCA` has a bound/input enrichment of 0.177 ratio.
With `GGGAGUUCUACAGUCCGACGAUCGGGGAGAAACCUUACGAAUGCGUUCAGUGUGGGAAAUCCUACAGUCAGAGCUCAAACCUCUUCAGACAUCAGAGACGACACAAUGCAGAAAAACUUUUGAAUGUUGUGAAAGUUUAAGAACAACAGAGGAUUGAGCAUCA` the bound/input enrichment was 0.2 ratio.
`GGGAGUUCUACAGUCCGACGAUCCACACCCUCUUCUGCGGGACCCUCAUCCUGCAGGCCCGGGCCUAUGUGGGACCGCACGUCCUGGCAGUGGUGACCCGCACAGGGUUCUGCACGGCAAAAGGGGGCCUGGUGAGCUCCAUCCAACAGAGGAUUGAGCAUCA` has a bound/input enrichment of 0.0531 ratio.
With `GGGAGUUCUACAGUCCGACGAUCCUGUGUGUGCUGAAUAAUGAUUUGUGAAAGAAGUUUUUCCAAGCUGUAACCCAUGCUGUUAUUAUAGUUGCUGCAAAAUGUUCUUCCUAUUGAUGUUUUUAUUUGUUAACUGAAGGUCUCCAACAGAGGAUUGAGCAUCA` the bound/input enrichment was 0.239 ratio.
The bound/input enrichment of `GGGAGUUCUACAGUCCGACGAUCACUCUUGACUCUUUCCAUCCUCUUCCUUUUCCUCUUGAUAUUCAAGGCCAUGAAUCCCAAAAUAGCUGUCUUAGUGGCUAGCACCCAAACAGAGGUGGAAUAAAUCCACCCCAGUGUCUCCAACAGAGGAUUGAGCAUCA` is reported as 0.868 ratio.
The bound/input enrichment of `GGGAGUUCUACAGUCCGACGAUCCUGUGACCACAAGAUCCUACCUGAGUGUUCAGAUGGGUUGACUCCCUCUCCUUGCCUGAACCCCCCCCCACUGCCCCCCCAUCCCCCGCAGAAUUCCGAGAUGUUGCCUCUGCACGGUUCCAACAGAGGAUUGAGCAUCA` is reported as 0.661 ratio.
The bound/input enrichment of `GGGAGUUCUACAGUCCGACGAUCUUUGUAUUUAUGCUAAGCACACGUGCUGGUGGUCUGGGCAUCAAUCUUGCAACUGCUGAUGUAGUCAUUUUAUAUGAUUCUGAUUGGAAUCCCCAAGUUGAUCUUCAGGCUAUGGACCGUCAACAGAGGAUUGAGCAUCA` is reported as 0.185 ratio.

Block 4
Target: Sal-like protein 4, full length isoform B (SALL4, Homo sapiens, UniProt Q9UJQ4-2, residues 1-616)
Technique: universal PBM
Molecule type: double-stranded DNA, one strand shown
Matrix: in vitro
Tested at: not given
Setting: 8-mer, flanks averaged, mean of replicates
Direction: higher = stronger binding
`ATAGTCAT` gave an E-score of 0.219.
The E-score of `CGAATCGC` is reported as -0.267.
The E-score of `GATGCCAC` is reported as -0.222.
The E-score of `GACGTCAC` is reported as -0.15.
`ACCCTGGG` has an E-score of -0.283.
`ACGATCAA` has an E-score of 0.203.
For `CGCGCTGA`, the E-score was -0.379.
With `GGGATTAC` the E-score was -0.153.
With `CGTACTTC` the E-score was 0.0779.
For `CCATGAAG`, the E-score was -0.103.
The E-score of `CTATAAAG` is reported as 0.191.
The E-score of `ACGAACGG` is reported as 0.00519.
With `CCTTAGGC` the E-score was -0.202.
For `GGTGGGTA`, the E-score was 0.0527.
The E-score of `GGTTCTAA` is reported as 0.029.
For `ACGGATAA`, the E-score was 0.1.
For `GATGCGAC`, the E-score was -0.124.
`CTCAAAGA` has an E-score of -0.0665.
With `CGTAGAAC` the E-score was -0.146.
`AAACCTTT` has an E-score of 0.112.
`AGCTAACC` gave an E-score of -0.297.
`AGTACCAT` gave an E-score of 0.19.
`AACTCGAC` gave an E-score of -0.138.
The E-score of `TATTCGAA` is reported as 0.179.

Block 5
Target: NFE2L2, bZIP domain (human)
Technique: DHFR protein complementation
Matrix: yeast
Setting: single substitutions, most at no-binding floor
Baseline: wild-type JUN-FOS pair
Direction: higher = stronger binding
Parent: JUN, bZIP domain (human); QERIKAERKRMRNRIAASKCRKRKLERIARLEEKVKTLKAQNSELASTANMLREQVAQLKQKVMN; partner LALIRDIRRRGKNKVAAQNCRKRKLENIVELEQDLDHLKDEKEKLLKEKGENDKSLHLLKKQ
With `E54N` the binding fitness was -1.46 natural log.
`S43Q` gave a binding fitness of -1.31 natural log.
For `V35S`, the binding fitness was -1.5 natural log.
`K34L` has a binding fitness of -1.32 natural log.
`A29R` has a binding fitness of -1.46 natural log.
For `A49L`, the binding fitness was -1.44 natural log.
With `V35L` the binding fitness was -1.46 natural log.
The binding fitness of `L52M` is reported as -1.5 natural log.
`A46P` has a binding fitness of -1.41 natural log.
For `E32D`, the binding fitness was -1.49 natural log.
`S43A` has a binding fitness of -1.39 natural log.
With `K39W` the binding fitness was -1.52 natural log.
`A29H` gave a binding fitness of -1.45 natural log.
The binding fitness of `Q41E` is reported as -1.51 natural log.
With `S47T` the binding fitness was -1.38 natural log.
The binding fitness of `A46N` is reported as -1.53 natural log.
`T37C` has a binding fitness of -1.2 natural log.
The binding fitness of `V56S` is reported as -1.37 natural log.
For `A57H`, the binding fitness was -1.1 natural log.
`E44V` has a binding fitness of -1.32 natural log.
With `S43K` the binding fitness was -1.58 natural log.

Excerpt of the above (block 5):
`A46P` has a binding fitness of -1.41 natural log.
For `E32D`, the binding fitness was -1.49 natural log.
`S43A` has a binding fitness of -1.39 natural log.
With `K39W` the binding fitness was -1.52 natural log.
`A29H` gave a binding fitness of -1.45 natural log.
The binding fitness of `Q41E` is reported as -1.51 natural log.
With `S47T` the binding fitness was -1.38 natural log.
The binding fitness of `A46N` is reported as -1.53 natural log.
`T37C` has a binding fitness of -1.2 natural log.
